Assay results from different studies.
A part holds a random share of what one study measured. Substitutions count along the parent as printed.

Study 1
Target: CCND3, cyclin fold, Cln2 fusion (human)
Method: yeast growth competition, sequencing
Sample: yeast
Notes: weak parent motif
Relative to: not given
Reading: higher = stronger binding
Starting sequence: E2F1 docking peptide (human); PPVKRRLDLETDH
`PPVKRRLDLETAH [D12A]`: “normalised enrichment score” 0.139.
For `PPVKRWLDLETDH [R6W]`, “normalised enrichment score” read 0.0909.
For `PPVKRRLDLEHDH [T11H]`, “normalised enrichment score” read 0.0625.
Under “normalised enrichment score”, `PPVKRRLNLETDH [D8N]` is recorded as 0.161.
Under “normalised enrichment score”, `PPVKDRLDLETDH [R5D]` is recorded as 0.0958.
`PPVKRRLDLFTDH [E10F]`: “normalised enrichment score” 0.118.
Under “normalised enrichment score”, `PPVKRRLDLEKDH [T11K]` is recorded as 0.151.
Under “normalised enrichment score”, `PPVKRRLDLETDV [H13V]` is recorded as 0.15.
For `PPVKRCLDLETDH [R6C]`, “normalised enrichment score” read 0.133.
For `PPVKRRLDLETDY [H13Y]`, “normalised enrichment score” read 0.0807.
Under “normalised enrichment score”, `PPVKWRLDLETDH [R5W]` is recorded as 0.104.
Under “normalised enrichment score”, `PPSKRRLDLETDH [V3S]` is recorded as 0.166.
`PPVKRRLDLETDT [H13T]` — result for “normalised enrichment score”: 0.127.
Under “normalised enrichment score”, `PPVKRRYDLETDH [L7Y]` is recorded as 0.165.
`PPVKRMLDLETDH [R6M]`: “normalised enrichment score” 0.124.
For `PPVKRVLDLETDH [R6V]`, “normalised enrichment score” read 0.0751.
`PPVKRRPDLETDH [L7P]` — result for “normalised enrichment score”: 0.174.
`PPVKRLLDLETDH [R6L]` — result for “normalised enrichment score”: 0.136.
Under “normalised enrichment score”, `PPVKRRLDLEADH [T11A]` is recorded as 0.0923.
`PPVFRRLDLETDH [K4F]`: “normalised enrichment score” 0.152.
`PPVKRRLSLETDH [D8S]`: “normalised enrichment score” 0.152.
`PPVKRRLCLETDH [D8C]`: “normalised enrichment score” 0.0458.
`PPVKRRLDLTTDH [E10T]`: “normalised enrichment score” 0.127.
For `PPVKRRLFLETDH [D8F]`, “normalised enrichment score” read 0.132.
`PPIKRRLDLETDH [V3I]` — result for “normalised enrichment score”: 0.107.

Study 2
Target: ABI1, truncated, D143A, DHFR fusion (Arabidopsis thaliana)
Method: DHFR PCA, deep sequencing
Sample: yeast
Notes: methotrexate growth selection, single substitutions
With: (+)-ABA 0.11 µM
Relative to: wild-type fitted maximum
Reading: higher = stronger binding
Starting sequence: PYL1, truncated, DHFR fusion (Arabidopsis thaliana); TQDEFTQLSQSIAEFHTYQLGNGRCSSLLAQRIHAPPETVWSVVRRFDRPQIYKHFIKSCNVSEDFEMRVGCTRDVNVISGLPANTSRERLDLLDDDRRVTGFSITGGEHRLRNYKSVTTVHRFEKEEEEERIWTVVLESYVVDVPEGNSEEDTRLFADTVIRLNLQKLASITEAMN; partner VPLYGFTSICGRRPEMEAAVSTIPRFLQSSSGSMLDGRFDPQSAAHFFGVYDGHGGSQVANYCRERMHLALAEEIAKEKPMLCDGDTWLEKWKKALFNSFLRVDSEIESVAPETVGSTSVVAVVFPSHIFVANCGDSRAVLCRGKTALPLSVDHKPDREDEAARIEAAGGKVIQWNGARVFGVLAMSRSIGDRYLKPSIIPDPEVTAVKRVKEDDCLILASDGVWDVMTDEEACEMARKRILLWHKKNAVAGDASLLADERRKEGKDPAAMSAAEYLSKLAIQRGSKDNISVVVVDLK
`D95P`: “relative binding score” -7.27%.
For `P83E`, “relative binding score” read 13.3%.
`L94E` — result for “relative binding score”: -5.97%.
For `L82I`, “relative binding score” read 30.6%.
For `N165H`, “relative binding score” read 4.46%.
Under “relative binding score”, `L156M` is recorded as 30.8%.
`Q2C` — result for “relative binding score”: 42.5%.
`P83T`: “relative binding score” 20.3%.
`E129N` — result for “relative binding score”: 41%.
`L82V`: “relative binding score” 19.6%.
For `F157E`, “relative binding score” read 8.16%.
For `G102H`, “relative binding score” read -9.02%.
Under “relative binding score”, `F5C` is recorded as 14.4%.
`H16D` — result for “relative binding score”: 0.76%.
For `S42H`, “relative binding score” read 5.56%.
For `T73A`, “relative binding score” read 10.7%.
`A158N` — result for “relative binding score”: 11.9%.
Under “relative binding score”, `Q167G` is recorded as 13.2%.
Under “relative binding score”, `V70L` is recorded as -1.73%.
`P50W` — result for “relative binding score”: 5.61%.

Study 3
Target: RNA binding protein fox-1 homolog 2, RRM domain, GST-SBP tag (RBFOX2, Homo sapiens, UniProt O43251-10, residues 100-194)
Method: RNA Bind-n-Seq
Form: RNA
Sample: in vitro
Tested at: 365 nM
Notes: natural RNA segment, single round, ends assumed
Relative to: no-protein control
Reading: higher = stronger binding
Target sequence (chain): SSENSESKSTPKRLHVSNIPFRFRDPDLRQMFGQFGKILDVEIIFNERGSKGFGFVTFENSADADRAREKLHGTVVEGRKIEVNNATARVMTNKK
`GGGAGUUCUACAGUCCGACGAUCUGGUCAAAGUUUUCUGUUUAUUUUGCUUGUCAUAUUCGAUGUACUUUAAGGUGUCUUUAUGAAGUUUGCUAUUCUGGCAAUAAACUUUUAGACUUUUGAAGUGUUUGUGUUGGAAUUCUCGGGUGCCAA`: “RBNS enrichment (R)” 0.689.
For `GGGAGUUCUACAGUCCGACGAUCGUUUGAAAAUGAAGGACUGCCUUGCCAGGAACCCAGUCGGGACUGUGGAGAAAAGAUUUGACUGAUAGAUGUUGGGACUUAGGCAAAGCUUUUGAAAGGCCUCUAACCUAUGGAAUUCUCGGGUGCCAA`, “RBNS enrichment (R)” read 1.22.
Under “RBNS enrichment (R)”, `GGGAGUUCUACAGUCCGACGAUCUUGUUUUUGUUUUAAUUUGCACAGCUACACAGAGGAAAUAACUUAGGCACUUUCUGUUUUUUUUAAAAAAAUAAUAAGGUCUCAUGGCUUCAUUUAGAGACCACAGUAACUGGAAUUCUCGGGUGCCAA` is recorded as 0.516.
`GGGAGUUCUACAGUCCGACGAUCGGAGGUACACCCGUGUGUGUGCAGAGGCACACCCGUGAGUGUGUGGAGGUACACCCUUGUGUGCGUGGAGGCACACCUGGGCAUAGUCUCCGCCCUUUCCCUGGGGAGCCUGGAAUUCUCGGGUGCCAA` — result for “RBNS enrichment (R)”: 0.589.
Under “RBNS enrichment (R)”, `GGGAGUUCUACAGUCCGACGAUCAAAUAUGAAUGGACCCAUUUCAAGAACAAGUUCUAGUAUCCCUGCUAAUAAUCCUUUAGUUACUCAGCUGCUCCAGGGCAAAGAUGUUCCCUUGGAGCAAAUUCUGCCUAUGGAAUUCUCGGGUGCCAA` is recorded as 0.394.
`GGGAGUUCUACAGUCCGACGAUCGAGGCCAUGUGCCAUUCUCCCGGGCCCAGCGCCCGGCCGUCACCCCACCCGAUGACCUGCAUGAAGCCAGCAGCACCCAGAGCCACUCCUGCUGCCCUAGAACUAGCGGUUGGAAUUCUCGGGUGCCAA`: “RBNS enrichment (R)” 5.69.
`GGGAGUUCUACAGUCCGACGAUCGAGCUUUUACCUUGGAAAAGGUAAAGAUGGAAAUGUACACCAAAAAAGACAAUUUUUACAUUUAAUGGAACAUUCUUUUUUUUUACAAGUAUAUUUUUCUACUGAUAGUUUGGAAUUCUCGGGUGCCAA`: “RBNS enrichment (R)” 0.421.
For `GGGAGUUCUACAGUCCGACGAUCUAGAUGGCAGCCCUGGGCUGUCUCUGCUAUGGGGUGACCUUUCUACCUCCACACAAGACCCUGUUGACUCAGGAGGAUCUCCGCAAUGGUUGAUUAAUAGCUGAAGCAAAUGGAAUUCUCGGGUGCCAA`, “RBNS enrichment (R)” read 0.216.
Under “RBNS enrichment (R)”, `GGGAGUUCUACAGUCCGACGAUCAGAGGAGACAGUCUAUCACUCCCCCUAGACCAGGCGCUUUGCGGUGACAGCUGGAGCUAUAUGGAUGGGUGAUGAGAGACGUUCCCCCAUCCUGUGUCUCCUGCUGUGUGUGGAAUUCUCGGGUGCCAA` is recorded as 0.496.
`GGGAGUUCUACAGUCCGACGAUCGUAUAAAUGGAAUGUUGUGGAGAUGACCCCUCCCUGUGCCGGCUGGUUCCUCUCCCUUUUCCCCUGGUCACGGCUACUCAUGGAAGCAGGACCAGUAAGGGACCUUCGAUUGGAAUUCUCGGGUGCCAA` — result for “RBNS enrichment (R)”: 0.623.
For `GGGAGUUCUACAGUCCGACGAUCUGGCGCACGCUUAUUUUAGGCCAGCGGCAGGGGACUCCAGCCUGCUGGACACUUCAGUCCAGCUCUCUCCUGACUGGGGCUUGCGACUCACAGGAUUGCAUCGUCCCAGCUGGAAUUCUCGGGUGCCAA`, “RBNS enrichment (R)” read 6.54.
For `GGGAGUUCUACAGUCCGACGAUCUCGAUUCUCCAAGGAGUCCUUCACUGGCCUAAACAUUCUGUAAUGUUGGGCAUUCAAGGGAAUGGAAGAAAACAAACCACAUGCCUUUAACAGAUGAACUGUAAUGACGAUGGAAUUCUCGGGUGCCAA`, “RBNS enrichment (R)” read 0.261.

Study 4
Target: Interferon regulatory factor 5, full length, phosphomimetic (IRF5, Homo sapiens, UniProt Q13568-2, residues 1-514, S451D/S453D/S456D/S462D)
Method: protein-binding microarray
Form: double-stranded DNA, one strand shown
Sample: in vitro
Tested at: 940 nM top
Notes: 60-bp whole probe
With: salmon DNA 0.4 mg/ml
Relative to: random background probes
Reading: higher = stronger binding
Constant ends, left off below: GCCTAGCAC … GTCTTGATTCGCTTGACGCTGCTG
`TCATAACTTATTCTCTAACTGTGCTAG`: “fitted relative affinity” 1.05 z-score.
`CCTCACTTCCTTCTGCCTGTGTGCTAG` — result for “fitted relative affinity”: 1.48 z-score.
Under “fitted relative affinity”, `GAGGATTTCGGGTTTCGAGACGTGCTA` is recorded as 2.05 z-score.
For `TTGGGTCTCCTTTTCCTTTAGTGCTAG`, “fitted relative affinity” read 0.736 z-score.
`TTAGGTCTCTGTATCGGTTAGTGCTAG` — result for “fitted relative affinity”: 2.5 z-score.
For `TTAGAACTGACACTGGATTAGTGCTAG`, “fitted relative affinity” read -0.468 z-score.
Under “fitted relative affinity”, `TCATTCTTGGGACTCACACTGTGCTAG` is recorded as 0.545 z-score.
`GACGGTTTCAGTTCCGGGACGTGCTAG`: “fitted relative affinity” 5.78 z-score.
For `TCATATTCATATATATAACTGTGCTAG`, “fitted relative affinity” read 0.451 z-score.
For `GACGATCACAGTCTCGAGACGTGCTAG`, “fitted relative affinity” read 0.557 z-score.
Under “fitted relative affinity”, `CTGTTCTGCAGACTTCTGTCGTGCTAG` is recorded as -0.156 z-score.
`GACGGTTTCGAATATCGGGACGTGCTA`: “fitted relative affinity” 6.09 z-score.
`TTAGAGATCAGTCTCGATTAGTGCTAG`: “fitted relative affinity” 2.91 z-score.
`TTAAGTATCCTTCTCCTTTAGTGCTAG` — result for “fitted relative affinity”: 0.776 z-score.
`GACGATATCAGTTTCGACACGTGCTAG` — result for “fitted relative affinity”: 4.84 z-score.
`AGACAGTTGAGTTCTGTTGCAGTGCTA` — result for “fitted relative affinity”: -0.333 z-score.
For `TTAGGTTTCGGAGTGGGTTAGTGCTAG`, “fitted relative affinity” read 6.73 z-score.

For quick reference, copied from above (study 1):
`PPVKRRLCLETDH [D8C]`: “normalised enrichment score” 0.0458.
`PPVKRMLDLETDH [R6M]`: “normalised enrichment score” 0.124.
Under “normalised enrichment score”, `PPVKWRLDLETDH [R5W]` is recorded as 0.104.
`PPIKRRLDLETDH [V3I]` — result for “normalised enrichment score”: 0.107.
`PPVKRRLDLFTDH [E10F]`: “normalised enrichment score” 0.118.
